Measurements gathered from unrelated publications.
Lines come from different studies, so protocols differ. Several values in a cell are separate wells, animals, samples, runs or records. ± gives the spread as reported.

SMILES	target or system	test	test system	setting	scale	endpoint	result
CC(Nc1nc(N2CCCC2)nc2ccccc12)c1ccccc1 (centres unmarked)	importin beta-1	SREBP1 nuclear import, high content imaging	HeLa Kyoto	0.5 µM, 3 h, together with: glucose and MG132	–	cells with nuclear SREBP1	90.1% and 85.6% and 86.6% and 88.6%
[Cl-].[Cl-].[Pt+2].[Ru+2].c1ccc(-c2nccnc2-c2ccccn2)nc1.c1cnc2c(c1)ccc1cccnc12.c1cnc2c(c1)ccc1cccnc12	pcDNA supercoiled plasmid	agarose gel electrophoresis	–	50 µM, photoinduced cleavage, together with: 0.1 µM pcDNA	–	supercoiled DNA	79.4%
O=C(Nc1cc(OCCN2CCCC2)c2ccccc2n1)c1cc(OCCN2CCCC2)cc(C(=O)Nc2cc(OCCN3CCCC3)c3ccccc3n2)n1	c-myc G-quadruplex DNA	FRET melting	–	1 µM, pH 7.4, together with: 60 mM potassium	–	ΔTm	17.1 ± 0.8 K
COc1cc(NC(C)CCCN)c2ncccc2c1 (centres unmarked)	human iPSC-derived cardiomyocytes	MyBP-C/MYH ratio, plate-normalised SD score	–	concentration not given, primary screen	direction not given	activity score	7.4
Oc1ccccc1-c1n[nH]cc1-c1ccnc2ccccc12	KIN2 (Candida albicans)	kinase binding, MIB/MS competition	Candida albicans lysate	1 µM	reference: DMSO	log2 fold change	0.05
C=C(F)C(=O)N1CCN(c2nc(OC[C@@H]3CCCN3C)nc3c2CCN(c2cccc4cccc(Cl)c24)C3)C[C@@H]1CC#N	HRAS wild type (human)	SOS-mediated nucleotide exchange, inhibitor	–	concentration not given	–	inhibition	inactive
CN(C)c1ccc(C(=C2C=CC(=[N+](C)C)C=C2)c2ccc(N(C)C)cc2)cc1	MYBPC3 iPSC cardiomyocytes	plate-normalised	–	concentration not given, 24 h, hit retest	–	MyBP-C level	1.2%
NCCCOc1cc(NC(=O)c2cccc(C(=O)Nc3cc(OCCCN)c4ccccc4n3)n2)nc2ccccc12	c-myc G-quadruplex DNA	FRET melting	–	1 µM, pH 7.4, together with: 60 mM potassium	–	ΔTm	16.3 ± 0.8 K
c1coc(-c2n[nH]cc2-c2ccnc3ccccc23)c1	SHA3 (Candida albicans)	kinase binding, MIB/MS competition	Candida albicans lysate	1 µM	reference: DMSO	log2 fold change	-0.24
[Cl-].[Cl-].[Pt+2].[Ru+2].c1ccc(-c2nc3cc4ccccc4cc3nc2-c2ccccn2)nc1.c1cnc2c(c1)ccc1cccnc12.c1cnc2c(c1)ccc1cccnc12	pcDNA supercoiled plasmid	agarose gel electrophoresis	–	100 µM, photoinduced cleavage, together with: 0.1 µM pcDNA	–	nicked circular DNA	15.6%
NC(=O)c1ccc2nccc(NCCc3ccccc3)c2c1	CDK8/CDK19	NF-κB reporter gene	293-NFκB-Luc	3 h, together with: TNF-α 10 ng/mL	–	IC50	> 5 µM
NC1(C(=O)N[C@@H](CCO)c2ccc(Cl)cc2)CCN(c2nc[nH]c3nccc2-3)CC1	Akt	inhibitor	mouse BT-474 xenograft	intraperitoneal, 30 mg/kg	–	time to baseline return	≤ 24 h
[Cl-].[Cl-].[Pt+2].[Ru+2].c1ccc(-c2nc3ccccc3nc2-c2ccccn2)nc1.c1cnc2c(c1)ccc1cccnc12.c1cnc2c(c1)ccc1cccnc12	pcDNA supercoiled plasmid	agarose gel electrophoresis	–	10 µM, photoinduced cleavage, together with: 0.1 µM pcDNA	–	supercoiled DNA	92.6%
NCCCOc1cc(NC(=O)c2cc(Cl)cc(C(=O)Nc3cc(OCCCN)c4ccccc4n3)n2)nc2ccccc12	c-myc G-quadruplex DNA	FRET melting	–	1 µM, pH 7.4, together with: 60 mM potassium	–	ΔTm	17.1 ± 0.5 K
CCN(CC)c1ccc(/C=N/c2ccccc2F)c(O)c1	yeast alpha-glucosidase	enzyme activity	–	together with: pNPG	–	IC50	169 µM
O=C(c1ccc(Cl)cc1)N(Cc1ccccc1)C1CCCCC1	SKCa channel	–	–	10 µM	–	inhibition	2.8%
Cc1ncsc1-c1ccc([C@H](C)NC(=O)[C@@H]2C[C@@H](O)CN2C(=O)[C@@H](NC(=O)CCCCCCCCCCNC[C@@H](C(=O)N2CCN(c3ncnc4c3[C@H](C)C[C@H]4O)CC2)c2ccc(Cl)cc2)C(C)(C)C)cc1	Akt	inhibitor	mouse BT-474 xenograft	intraperitoneal, 30 mg/kg	–	sustained response duration	≥ 48 h
CCN(CC)c1ccc(/C=N/c2ccc(F)cc2)c(O)c1	yeast alpha-glucosidase	enzyme activity	–	together with: pNPG	–	IC50	291 µM
CCS(=O)(=O)c1nc(C2CC2)cc(C(F)(F)F)n1	importin beta-1	SREBP1 nuclear import, high content imaging	HeLa Kyoto	50 µM, 3 h, together with: glucose and MG132	–	cells with nuclear SREBP1	51.1% and 54.4% and 66.1% and 66.9%
Cn1cc(-c2ccc(-c3cncc(Cl)c3N3CCC4(CCNC4=O)CC3)cc2)cn1	COLO 205	gene expression, microarray, measured: APOL6 mRNA	–	concentration not given, 6 h	reference: untreated cells	log2 fold change	1.46
CNC(=O)c1ccc2nccc(NCCc3ccccc3)c2c1	CDK8/CDK19	NF-κB reporter gene	293-NFκB-Luc	3 h, together with: TNF-α 10 ng/mL	–	IC50	> 5 µM
CCc1cnc(NC(=O)c2cc(S(=O)(=O)N3CCOCC3)ccc2N2CCC(F)(F)C2)s1	oligosaccharyltransferase	N-glycosylation, inhibitor, luciferase reporter	–	–	–	IC50	0.59 µM
NCCOc1cc(NC(=O)c2cc(OCc3c[nH]nn3)cc(C(=O)Nc3cc(OCCN)c4ccccc4n3)n2)nc2ccccc12	c-myc G-quadruplex DNA	FRET melting	–	1 µM, pH 7.4, together with: 60 mM potassium	–	ΔTm	5.8 ± 0.1 K
CC[S+]([O-])c1nc(-c2ccccc2)cc(C(F)(F)F)n1 (centres unmarked)	importin beta-1	SREBP1 nuclear import, high content imaging	HeLa Kyoto	0.05 µM, 3 h, together with: glucose and MG132	–	cells with nuclear SREBP1	86.6% and 87.2% and 84.7% and 86.8%
O=C(Nc1cc(OCCN2CCCC2)c2ccccc2n1)c1cc(OCc2ccc(F)cc2)cc(C(=O)Nc2cc(OCCN3CCCC3)c3ccccc3n2)n1	c-myc G-quadruplex DNA	FRET melting	–	1 µM, pH 7.4, together with: 60 mM potassium	–	ΔTm	5.3 ± 0.5 K
O=C(C#Cc1cn(Cc2ccccc2)c(=O)[nH]c1=O)NCc1ccccc1	MMP-14	inhibitor, colorimetric	–	20 µM	–	remaining MMP-14 activity	95 ± 3%

Some of these lines once more:
SMILES	target or system	test	test system	setting	scale	endpoint	result
COc1cc(NC(C)CCCN)c2ncccc2c1 (centres unmarked)	human iPSC-derived cardiomyocytes	MyBP-C/MYH ratio, plate-normalised SD score	–	concentration not given, primary screen	direction not given	activity score	7.4
